Measured values gathered from unrelated publications.
Every numbered part comes from another study and shows a few of its results, in no order. Positions count from the first letter of the parent shown.

Block 1
Target: RNA binding protein fox-1 homolog 2, RRM domain, GST-SBP tag (RBFOX2, Homo sapiens, UniProt O43251-10, residues 100-194)
Technique: RNA Bind-n-Seq
Molecule type: RNA
Matrix: in vitro
Concentration: 365 nM
Setting: natural RNA segment, single round, ends assumed
Baseline: no-protein control
Reading: higher = stronger binding
All sequences stand within: GGGAGUUCUACAGUCCGACGAUC … UGGAAUUCUCGGGUGCCAA
Residues (chain): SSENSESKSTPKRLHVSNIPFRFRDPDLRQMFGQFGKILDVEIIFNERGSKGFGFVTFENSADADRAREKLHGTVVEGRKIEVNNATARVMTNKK
Strand	RBNS enrichment (R)
AAGUUUUAACUUUAAUACAGCUCAGUAAAUGGCUUCUUCUAGAAUGUAAAGUUAUGUAUUUAAAGUUGUAUCUUGACACAGGAAAUGGGAAAAAACUUAAAAAUUAAUAU	1.07
CUCAACUUGAAUCAUGACAGCCCAUCGCUCAGUCUCACCCUAAACUCAUGGAGCUUGUUUCAGCUCCUCACUUCUUGACUGUAUUUGUACUAUGUUGAAAAAAUAUCCUG	0.414
UCUGAGAUGUUCGGACUUUUAAAUUCAUGUAAAUAUCUCCUCUUCUGCUGUGUGUACAUAGGACUACAUAGUCUAUCCUAGAGAUAAAUAAACAACCAUAUUUACCAUGU	0.285
UUGGGUGGAGGCAAAACACUAAUAAAAGGGCUAAAAAGGAAAAUGAUGCUUUUCUUCUAUAUUCUUACUCUGUACAAAUAAAGAAGUUGCUUGUUGUUUGAGAAGUUUAA	0.854
CAUCAAUAUGUAAAAUUGUUGUUUUGGCUUUAUUUUGAACUCUGGGAGCAAAAGAAAAAUUUUUGUACAUUUUCUUCAUUUAAUCAGAAUGGUUUACAUAUUUCUGCAAA	1.14
AUAAUACAGCAGGUAUAAUUACACCAAGCGCUAUAGUUAUAAAUAUGGCAUGAAGUGAACUAUGGCCUUUUAUUUCCUUCCAGUGUGAACACAGCAGGUGUGAGAUGUCA	0.643
CGAUGUACAUAACUAUUUAAUGCAGCGGCAGCGGCGACAGCCUUCCCUGAGAGGACUUAAAAGCAGAAGGAAACCGAGAUGCUUCCCGCAGCCGUGGACGAUUCUCCAGG	0.363
ACCCCUUGGGCUAUGGACCCCAUUCCCUUGCCAUCACCCCCGCCAGUGGGUCUGCUUCACUGUGGAAGGAGAAACUGUGACUUUCUGGUUGCAUUACUGCAAAACAGCAA	0.271
UCUUGUCCAGCAGGGCCUUGACAGGAAUCCAGGGAGUAGCUCCUGGCCAGAACCAGCCUCUGCGGGGCUUGUGCUCUGCAAAGACUCUGCUGCUGGGGAUUCAGCUCUAG	0.203
CCAUUAAUGAUUCAUCCGCACCAAUGAAGAAGUUGUAACUAACUAGCAUGCUGCGCAGACACUGGCAUAGCAUGCCCUGGGUACACUAACACUCACCUGCUCCCUUUCGU	0.709
UAGCUGGAGUGUGUGCUGCCUUUCAGGUACAACUUUUAUGUAAUAAAAGCCAGAGCAUUAAGCUUACACAGACUACUUUCUAUGCAAGACAGAGAUAUGGACUAGGUUAC	0.221
CUGUCUGCACAUUUGGGGGUCUCUAUAUUUCUGAAGAGGUAAGCUGAUGAAAAUAAAUAGAGUGUAAAUUCUUUUUAAUGCUUUAGUGAUUAAAUGUUUUAGUAUUUUGA	1.93

Block 2
Target: ABI1, truncated, D143A, DHFR fusion (Arabidopsis thaliana)
Technique: DHFR PCA, deep sequencing
Matrix: yeast
Setting: methotrexate growth selection, single substitutions
Added: (+)-ABA 2500 µM
Baseline: wild-type fitted maximum
Reading: higher = stronger binding
Parent: PYL1, truncated, DHFR fusion (Arabidopsis thaliana); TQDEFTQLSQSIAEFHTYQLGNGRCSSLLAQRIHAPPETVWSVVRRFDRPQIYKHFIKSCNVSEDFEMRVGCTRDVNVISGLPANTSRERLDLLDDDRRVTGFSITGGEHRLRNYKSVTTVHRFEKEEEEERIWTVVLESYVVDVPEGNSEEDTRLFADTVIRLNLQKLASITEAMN
Change	relative binding score [%]
Y53N	71.3
E64R	97.9
W41K	-8.86
L138K	42.5
V76N	86.8
T39Y	93.6
Y53G	73.8
T101W	73.8
R32D	83
F47E	-5.53
V142L	93.2
R69S	95.5
L169M	82.5
C72K	90.5
L112K	0.256
D159S	90.7

Block 3
Target: CCNB1, cyclin fold, Cln2 fusion (human)
Technique: yeast growth competition, sequencing
Matrix: yeast
Setting: weak parent motif
Baseline: not given
Reading: higher = stronger binding
Parent: SCAPER docking peptide (human); SNARRSLNFGGST
Change	normalised enrichment score
SNARRSLNFGPST [G11P]	0.00749
SNARRSLNFGGFT [S12F]	0.00736
SNARRSLNFGMST [G11M]	0.305
SNARSSLNFGGST [R5S]	0.495
SNARRSLNFGSST [G11S]	0.316
ANARRSLNFGGST [S1A]	0.956
SNARRSENFGGST [L7E]	0.132
SNARMSLNFGGST [R5M]	0.924
SNARRSLRFGGST [N8R]	0.717
SNARRSLNFGGSL [T13L]	0.991
SNARRSLNFGGSG [T13G]	0.56

Further values, each from its own experiment
Substance	target	assay	test system	setting	how to read	quantity	result
PhoQ, residues 284 288 289 292 302 303 SCKMEA	PhoP, residues 12 14 15 18 19 NQFFI (Escherichia coli, UniProt P23836)	Sort-seq, measured: YFP reporter	E. coli	PhoQ-PhoP variant library, added: 10 µM Mg2+	baseline: high Mg2+ state, higher = stronger signaling	fold induction	23.9

A few entries again (block 2):
Change	relative binding score [%]
L138K	42.5
V76N	86.8
T39Y	93.6
Y53G	73.8
T101W	73.8
